Measured values from different studies.
Each line is one published result; not all experiments were run side by side. Values joined by “and” are separate records of one study, mostly repeats; a detail may differ. ± gives the spread as reported.

Structure (SMILES)	assay	system	conditions	tissue uptake
C[N+](C)(CCOCCOCCOCCNC(=S)Nc1ccc(C[C@H]2CN(CC(=O)[O-])CCN(CC(=O)[O-])CCN2CC(=O)[O-])cc1)C[c-]1cccc1.[64Cu+2].[Fe+2].c1cc[cH-]c1	refers to: large intestine	nude mice, BxPC-3 tumour	8 h post injection, pretargeting, 72 h lag	5.2 ± 0.8 %ID/g
CC(=O)N([O-])CCCCCNC(=O)CCC(=O)N([O-])CCCCCNC(=O)CCC(=O)N([O-])CCCCCN.[89Zr+4]	gamma counting	healthy Balb/c mice, plasma	intravenous, 4 h, 89Zr-labelled complex	0.09 ± 0.04 %ID/g
COc1ccc(Nc2nc(Nc3ccc(OCCOCC[18F])cc3)ncc2Br)cc1		ICR mice, S180 tumour-bearing, heart	intravenous, 370 kBq, 30 min	2.93 ± 0.14 %ID/g
COc1ccc2c(c1)C(C)(C)C(/C=C/C1=C(Oc3ccc(C(=O)NCCCCOc4cc(CN(Cc5ccccn5)Cc5ccccn5)cc(CN(Cc5ccccn5)Cc5ccccn5)c4)cc3)C(=C/C=C3/N(CCCCS(=O)(=O)[O-])c4ccc(OC)cc4C3(C)C)CCC1)=[N+]2CCCCS(=O)(=O)[O-].O=[N+]([O-])[O-].O=[N+]([O-])[O-].[99Tc+].[C-]#[O+].[C-]#[O+].[C-]#[O+].[Zn+2]		BALB/c mice, healthy, urine and bladder	12 h post-injection	0.76 %ID/g and 0.58 %ID/g and 2.41 %ID/g
O=C(NCC1OC2CCC=CCCC2O1)c1ccc(COCCOCCOCC[18F])cc1 (centres unmarked)		healthy female BALB/c nude mice, small intestine	intravenous, 7.4 MBq per mouse, 30 min	10.3 ± 0.9 %ID/g
C[N+](C)(CCOCCOCCOCCOCCOCCOCCOCCNC(=S)Nc1ccc(CC2CN(CC(=O)[O-])CCN(CC(=O)[O-])CCN2CC(=O)[O-])cc1)C[c-]1cccc1.[64Cu+2].[Fe+2].c1cc[cH-]c1 (centres unmarked)	refers to: large intestine	nude mice, BxPC-3 tumour	8 h post injection, pretargeting, 72 h lag	4.8 ± 1.1 %ID/g
N#C[C@@H]1CCCN1C(=O)CNC(=O)c1ccnc2ccc(OCCCN3CCN(C(=O)CCc4ccc(O)c(CN5CCN6CC(=O)[O][Al-]([18F])([O]C(=O)C5)[O]c5ccc(CCC(=O)N7CCN(CCCOc8ccc9nccc(C(=O)NCC(=O)N%10CCC[C@H]%10C#N)c9c8)CC7)cc5C6)c4)CC3)cc12 (some centres unmarked)		BALB/c nude mice, U-87 MG xenograft, kidney	1 h, blocking, with: DOTA-FAPI-04 40 nmol/mouse co-injected	4.64 ± 0.49 %ID/g
COc1ccc(Nc2nc(Nc3ccc(OCCOCCOCC[18F])cc3)ncc2Br)cc1		ICR mice, S180 tumour-bearing, muscle	intravenous, 370 kBq, 30 min	2.07 ± 0.1 %ID/g
O=C(NCC1OC2CCC=CCCC2O1)c1ccc([18F])nc1 (centres unmarked)		healthy female BALB/c nude mice, stomach	intravenous, 7.4 MBq per mouse, 120 min	0.5 ± 0.1 %ID/g
CC[C@H](C)[C@H](NC(=O)C[C@H](NC(=O)CN1CCN2CCN(CC1)CC(=O)[O][Al]([18F])[O]C(=O)C2)C(=O)O)C(=O)N[C@H]1CCc2cccc3c2N(C1=O)[C@H](C(=O)NCc1cn[nH]n1)C3		C57BL/6J mice, MC-38 tumour, anti-PD-1 treated, muscle	0.5 h	0.4 ± 0.13 %ID/g
CCCC[C@H](NC(=O)COCCOCCNC(=O)CN1CCN(CC(=O)O)CCN(CC(=O)O)CC1)C(=O)N[C@H]1CC(=O)NCCCC[C@@H](C(N)=O)NC(=O)[C@H](Cc2c[nH]c3ccccc23)NC(=O)[C@H](CCCNC(=N)N)NC(=O)[C@@H](Cc2ccccc2)NC(=O)[C@H](Cc2c[nH]cn2)NC1=O [fluorine-18 labelled]		C57 mice inflamed muscle, inflamed muscle	intravenous, 1 h, with: NDP-MSH 10 µg co-injected	0.44 %ID/g
Cc1cc(C)n(CCN(CCN)CCCCCCNC(=O)[C@@H](N)Cc2c[nH]cn2)n1.[99Tc+].[C-]#[O+].[C-]#[O+].[C-]#[O+]		BALB/c nude mice, MCF7 xenograft, spleen	intravenous, 4 h	0.28 ± 0.03 %IA/g
CC(C)C[C@H](NC(=O)[C@@H](CCCCNC(=O)[C@@H](Cc1ccccc1)NC(=O)CCCCCCCNC(=O)CN1CCN(CC(=O)O)CCN(CC(=O)O)CCN(CC(=O)O)CC1)NC(=O)[C@H](Cc1ccc(O)cc1)NC(=O)[C@H](CO)NC(=O)[C@H](Cc1c[nH]c2ccccc12)NC(=O)[C@H](Cc1c[nH]cn1)NC(=O)[C@@H]1CCC(=O)N1)C(=O)N[C@@H](CCCNC(=N)N)C(=O)N1CCC[C@H]1C(=O)NCC(N)=O [indium-111 labelled]		male athymic nude mice, DU-145 prostate cancer xenograft, kidney	intravenous, 0.037 MBq, 1 h	7.62 ± 0.83 %ID/g
CCCC[C@H](NC(=O)CNC(=O)CNC(=O)[C@H](CCCCNC(=O)[C@H](CC(=O)O)NC(=O)C(C)c1ccc(CC(C)C)cc1)NC(=O)CN1CCN(CC(=O)O)CCN(CC(=O)O)CCN(CC(=O)O)CC1)C(=O)N[C@H]1CC(=O)NCCCC[C@@H](C(N)=O)NC(=O)[C@H](Cc2c[nH]c3ccccc23)NC(=O)[C@H](CCCNC(=N)N)NC(=O)[C@@H](Cc2ccccc2)NC(=O)[C@H](Cc2c[nH]cn2)NC1=O (some centres unmarked) [lutetium-177 labelled]		C57 mice, tumour-bearing, heart	2 h	0.39 ± 0.13 %ID/g
CN(O)C(=O)CCC(=O)NCCCN(CCCCN(CCCNC(=O)CCC(=O)N(C)O)C(=O)CCC(=O)N(C)O)C(=O)CCC(=O)N(C)O.[89Zr]	gamma counting	healthy Balb/c mice, muscle	intravenous, 1 h, 89Zr-labelled complex	0.39 ± 0.33 %ID/g
Cc1nc(N)nc2c1C(=O)N[C@@H](c1ccc(F)cc1-c1cccc(OCC[18F])n1)C2	ex vivo biodistribution	C57BL/6 mice, liver	intravenous, 1 MBq, 30 min	15.1 ± 0.14 %ID
CC(C)c1noc(C2CCN(c3ncnc(Nc4ccc(OCC[18F])cc4)c3[N+](=O)[O-])CC2)n1	ex vivo biodistribution after PET	C57BL/J male mice, spleen	60 min	1.48 ± 0.41 %ID/g
N#C[C@@H]1CC(F)(F)CN1C(=O)CNC(=O)c1ccnc2c(NC(=O)[C@H](CCCCNC(=O)CCOCCOCCOCCOCCOCCOCCNC(=O)CN3CCN(CC(=O)[O-])CCN(CC(=O)[O-])CCN(CC(=O)[O-])CC3)NC(=O)CCCc3ccc(I)cc3)cccc12.[177Lu+3]	biodistribution	U-87 MG tumour-bearing mice, bone	4 h	3.69 ± 1.93 %ID/g
N#C[C@@H]1CCCN1C(=O)CNC(=O)c1ccnc2ccc(OCCCN3CCN(C(=O)CCc4ccc5c(c4)CN4CCN(Cc6cc(CCC(=O)O)ccc6O)CC(=O)[O][Al-]([18F])([O]C(=O)C4)[O]5)CC3)cc12 (some centres unmarked)		BALB/c nude mice, U-87 MG xenograft, intestine	1 h, blocking, with: DOTA-FAPI-04 40 nmol/mouse co-injected	11 ± 3.77 %ID/g
O=C([O-])CN1CCN(CC(=O)[O-])CCN(CC(=O)NC[C@H]2CC[C@H](C(=O)N[C@H](Cc3cnc4ccccc4c3)C(=O)NCCCC[C@H](NC(=O)N[C@@H](CCC(=O)O)C(=O)O)C(=O)O)CC2)CCN(CC(=O)[O-])CC1.[64Cu+2]	ex vivo gamma counting	22Rv1 tumour-bearing mice, kidney	intravenous, 0.74 MBq, 6 h post-injection	43.6 %ID/g
